Experimental data gathered from unrelated publications.
Each line is one published result; not all experiments were run side by side. Numbers after ± are the reported error.
Cell line: RAW264.7

CCCCn1cc(C(=O)O)c(=O)c2cc(F)c(Nc3ccccc3Cl)c(N)c21
IC50 (nitric oxide production, Griess; 24 h, with: LPS): 56.5 ± 3.56 µg/mL

CNCC(=O)Oc1c(OC)ccc2c1[C@@]13CCN(C)[C@@H](C2)[C@H]1C=C(OC)C(=O)C3
IC50 (NO release, inhibitor, Griess; LPS-stimulated): 41.7 µM

O=C(/C=C/CCl)OC1CCOC1=O (racemic)
IC50 (NO release, inhibitor; LPS-stimulated): 19.6 µM

COC1=C[C@@H]2[C@@H]3Cc4ccc(OC)c(OC(=O)c5ccnnc5)c4[C@]2(CCN3C)CC1=O
IC50 (NO release, inhibitor, Griess; LPS-stimulated): 77.8 µM

O=C(/C=C/CI)O[C@@H]1COC(=O)C1
IC50 (NO release, inhibitor; LPS-stimulated): 0.9 µM

CCCCn1cc(C(=O)O)c(=O)c2cc(F)c(Nc3ccccc3Cl)c([N+](=O)[O-])c21
IC50 (NO release, inhibitor, Griess; LPS-stimulated): 72.3 µM

COc1ccc(-n2cc(C(=O)N3C[C@]4(OC(=O)c5ccccc5NC(C)=O)CC[C@H](OC)[C@@]56[C@@H]4C[C@@H]([C@@H]35)[C@@]3(O)C[C@H](OC)[C@H]4C[C@@H]6[C@]3(O)[C@H]4OC)nn2)cc1
IC50 (PGE2 release, inhibitor, ELISA; 24 h, LPS-stimulated): > 100 µM

CCCCn1cc(C(=O)O)c(=O)c2cc(F)c(Nc3cccc(Cl)c3)c([N+](=O)[O-])c21
IC50 (nitric oxide production, Griess; 24 h, with: LPS): 30.1 ± 0.5 µg/mL

COC1=C[C@@H]2[C@@H]3Cc4ccc(OC)c(OC(=O)c5cnc(C)cn5)c4[C@]2(CCN3C)CC1=O
IC50 (NO release, inhibitor, Griess; LPS-stimulated): 50.4 µM

Repeated from above:
CCCCn1cc(C(=O)O)c(=O)c2cc(F)c(Nc3ccccc3Cl)c(N)c21
IC50 (nitric oxide production, Griess; 24 h, with: LPS): 56.5 ± 3.56 µg/mL

CNCC(=O)Oc1c(OC)ccc2c1[C@@]13CCN(C)[C@@H](C2)[C@H]1C=C(OC)C(=O)C3
IC50 (NO release, inhibitor, Griess; LPS-stimulated): 41.7 µM
